Measurements of several laboratories.
Every numbered part comes from another study and shows a few of its results, in no order.

Series 1
Target: Sal-like protein 4, full length isoform B (SALL4, Homo sapiens, UniProt Q9UJQ4-2, residues 1-616)
Method: universal PBM
Molecule type: double-stranded DNA, one strand shown
Medium: in vitro
Tested at: not given
Notes: 8-mer, flanks averaged, mean of replicates
Direction: higher = stronger binding
Target sequence (chain): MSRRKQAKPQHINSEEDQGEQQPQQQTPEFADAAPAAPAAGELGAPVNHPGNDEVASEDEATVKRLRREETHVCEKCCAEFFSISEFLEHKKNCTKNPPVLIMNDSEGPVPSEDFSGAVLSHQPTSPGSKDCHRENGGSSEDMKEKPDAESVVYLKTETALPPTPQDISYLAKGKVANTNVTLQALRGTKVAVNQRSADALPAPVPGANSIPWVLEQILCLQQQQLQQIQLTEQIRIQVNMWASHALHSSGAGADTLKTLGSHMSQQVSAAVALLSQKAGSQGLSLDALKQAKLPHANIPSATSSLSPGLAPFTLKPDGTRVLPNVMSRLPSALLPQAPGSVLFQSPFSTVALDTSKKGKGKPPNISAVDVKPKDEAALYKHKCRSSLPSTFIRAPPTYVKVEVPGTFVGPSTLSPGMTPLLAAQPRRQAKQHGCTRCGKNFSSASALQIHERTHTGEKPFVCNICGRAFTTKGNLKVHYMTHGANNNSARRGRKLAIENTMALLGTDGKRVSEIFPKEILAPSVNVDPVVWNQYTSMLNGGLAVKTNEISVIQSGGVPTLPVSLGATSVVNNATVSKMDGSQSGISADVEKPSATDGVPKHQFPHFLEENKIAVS
With `ACCGCGTA` the E-score was -0.137.
The E-score of `ACTTCAAA` is reported as 0.106.
`CTCATTTA` gave an E-score of 0.174.
`CTCTGAAA` has an E-score of 0.142.
The E-score of `ATCGGCTA` is reported as 0.0545.
`AACGCGAC` gave an E-score of -0.155.
The E-score of `ACTTTTCG` is reported as 0.109.
For `CAAATAAA`, the E-score was 0.259.
`GATGCGGC` has an E-score of -0.288.
The E-score of `AGGCAGAG` is reported as -0.0572.

Series 2
Target: RING finger protein unkempt homolog, zinc fingers 1-6, GST-SBP tag (UNK, Homo sapiens, UniProt Q9C0B0, residues 30-357)
Method: RNA Bind-n-Seq
Molecule type: RNA
Medium: in vitro
Tested at: not given
Notes: RNA with constant flanks, human-mouse chimeric sites, ends assumed
Baseline: input RNA pool
Direction: higher = stronger binding
Constant ends, left off below: GGGAGUUCUACAGUCCGACGAUC … CAACAGAGGAUUGAGCAUCA
Target sequence (chain): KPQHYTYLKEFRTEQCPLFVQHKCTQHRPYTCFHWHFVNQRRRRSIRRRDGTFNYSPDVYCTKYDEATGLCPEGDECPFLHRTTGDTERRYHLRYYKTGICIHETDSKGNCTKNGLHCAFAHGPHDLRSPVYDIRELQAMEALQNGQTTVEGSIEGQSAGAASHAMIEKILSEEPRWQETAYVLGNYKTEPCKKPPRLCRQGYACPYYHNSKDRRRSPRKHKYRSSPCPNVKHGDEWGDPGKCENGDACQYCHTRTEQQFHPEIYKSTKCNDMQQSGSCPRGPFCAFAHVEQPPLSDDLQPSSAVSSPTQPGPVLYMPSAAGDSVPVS
For `ACAGUUAUAUUGUUGAGUUUCAUUUUCAUAUAUUCUUGUAGUGUCUGCUUGCCUGUGACUUCUGGUAAAAUAAGACUAGCCUUUGAAAAUAUUUUAGAUUUAACAUUAACAUUUUCUAAA`, the bound/input enrichment was 20.6 ratio.
`GAAACAUUUAAAUUUAAAGAAGCUGUUGUUCUAGGAAGUACGGACUUUCUAGAAGAUGAUAUAGAAAAAAUUGUAGAAGAACUGGGGAAAGAGUAUAAAGGCAAUGCCUACCAUCUGAUG` has a bound/input enrichment of 2.2 ratio.
The bound/input enrichment of `ACUCUUGACUCUUUCCAUUCUCGUCCCUUCCCUCUUGAUCUUCAAGGCCAUGAAUCCCAAAAUAACAGUCUUAGUGGCUAGCACCCAAACAGAGGUGGAAUAAAUCCACCCCAGUGUCUC` is reported as 0.65 ratio.
The bound/input enrichment of `GGUGGGGGGUUGUCAUUCGUUUGAGCUGCUGAUUUUCAUGAGUCGCCUUCAAAACUCUCGUGUAGGGUUGACAAUGUAAGGGGUGGGGGGAUCCAGCUUAUUCUUUUAUUUUCAAGUCCA` is reported as 0.589 ratio.
`GCAAAGGAUGAUGAGGCGGCAGCUGUUGCACUUUCCUCUCUCGUUCAUGCUUUGGAUGACUUAGACAUGGUCGCCAUCGUCCGAUAUGCUUAUGACAAAAGAUCUAAUCCUCAAGUUGGU` gave a bound/input enrichment of 0.0902 ratio.
For `CCAAUUGUGGAGCAGUACUUGAAGACAAAAAAGAACUCUAAUAAUUUAAUCAUCAAGUACAUUAGCUGCCGCCUGCUGACAUUUGUGAUUAUACUGUUAGCGUGUAUCUACCUGGGCUAU`, the bound/input enrichment was 0.383 ratio.

Series 3
Target: Histone acetyltransferase KAT6A, winged helix 2, GST fusion (KAT6A, Homo sapiens, UniProt Q92794, residues 85-181)
Method: protein binding microarray
Molecule type: double-stranded DNA, one strand shown
Medium: in vitro
Tested at: not given
Notes: 8-mer, flanks averaged, mean of 2 arrays, mostly near background
Baseline: not given
Direction: higher = stronger binding
Target sequence (chain): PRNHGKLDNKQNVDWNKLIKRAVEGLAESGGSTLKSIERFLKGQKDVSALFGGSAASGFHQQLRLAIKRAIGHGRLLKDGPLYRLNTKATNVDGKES
`TGGCTACA` gave an E-score of -0.0918.
The E-score of `CCCTAAAA` is reported as -0.044.
The E-score of `ACTAGCGC` is reported as -0.00441.
With `TGGGCTAA` the E-score was -0.0275.
`GATGGTGC` gave an E-score of -0.236.
For `GCAACAAA`, the E-score was 0.179.
`ATTAGCAC` gave an E-score of 0.138.

Further values, each from its own experiment
The fold induction of `PhoQ, residues 284 288 289 292 302 303 SLCLSL` is reported as 1.71 (PhoP, residues 12 14 15 18 19 IQFRS (Escherichia coli, UniProt P23836); Sort-seq, measured: YFP reporter; E. coli; PhoQ-PhoP variant library, together with: 10 µM Mg2+; baseline: high Mg2+ state, higher = stronger signaling).

For quick reference, copied from above (series 1):
`CTCTGAAA` has an E-score of 0.142.
The E-score of `ATCGGCTA` is reported as 0.0545.
